Experimental data gathered from unrelated publications.
Several values in a cell are separate wells, animals, samples, runs or records. Numbers after ± are the reported error.
MBLAC2: MBLAC2 (Homo sapiens, UniProt Q68D91)
UniProt Q68D91, sequence (whole entry, looked up): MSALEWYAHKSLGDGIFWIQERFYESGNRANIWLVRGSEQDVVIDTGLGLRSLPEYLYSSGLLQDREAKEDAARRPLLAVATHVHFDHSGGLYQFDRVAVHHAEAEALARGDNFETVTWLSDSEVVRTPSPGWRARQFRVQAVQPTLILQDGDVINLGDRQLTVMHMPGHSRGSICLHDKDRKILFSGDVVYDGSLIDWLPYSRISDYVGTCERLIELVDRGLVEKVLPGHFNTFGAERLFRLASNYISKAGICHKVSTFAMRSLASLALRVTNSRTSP
CDK2 with cyclin A: Cyclin-dependent kinase 2, with cyclin A (CDK2, Homo sapiens, UniProt P24941)
UniProt A4D1P6, sequence (whole entry, looked up): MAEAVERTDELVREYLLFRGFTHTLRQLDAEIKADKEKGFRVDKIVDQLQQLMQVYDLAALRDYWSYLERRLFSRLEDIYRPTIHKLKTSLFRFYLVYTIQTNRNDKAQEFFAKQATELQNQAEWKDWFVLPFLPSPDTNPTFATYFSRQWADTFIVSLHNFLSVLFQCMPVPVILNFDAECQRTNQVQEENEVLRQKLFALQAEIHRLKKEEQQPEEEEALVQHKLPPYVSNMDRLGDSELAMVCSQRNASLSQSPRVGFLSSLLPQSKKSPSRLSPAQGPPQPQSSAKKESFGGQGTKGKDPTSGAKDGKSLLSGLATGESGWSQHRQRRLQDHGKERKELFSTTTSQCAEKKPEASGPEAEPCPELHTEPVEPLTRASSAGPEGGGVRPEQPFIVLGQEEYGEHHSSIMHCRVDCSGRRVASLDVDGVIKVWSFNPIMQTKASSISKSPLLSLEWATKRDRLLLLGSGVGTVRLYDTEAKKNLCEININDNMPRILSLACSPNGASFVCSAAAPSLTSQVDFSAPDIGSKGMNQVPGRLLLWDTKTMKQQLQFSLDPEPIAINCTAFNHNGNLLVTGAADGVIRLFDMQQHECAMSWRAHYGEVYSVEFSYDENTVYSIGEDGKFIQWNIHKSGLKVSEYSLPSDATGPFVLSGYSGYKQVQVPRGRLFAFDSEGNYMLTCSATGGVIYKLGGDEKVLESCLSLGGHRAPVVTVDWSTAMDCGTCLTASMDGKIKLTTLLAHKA
UniProt Q9GZZ1, sequence (whole entry, looked up): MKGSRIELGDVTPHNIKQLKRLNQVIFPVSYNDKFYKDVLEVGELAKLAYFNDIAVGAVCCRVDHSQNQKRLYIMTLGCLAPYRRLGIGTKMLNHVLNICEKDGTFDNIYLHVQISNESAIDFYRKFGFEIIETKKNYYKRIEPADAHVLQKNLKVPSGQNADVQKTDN

SMILES = CN1CCc2c(c3ccccc3n2Cc2ccc(C(=O)NO)cc2)C1; target = MBLAC2; test = inhibitor, competition pulldown; test system = SW620 and MV4-11 lysate; setting = 1 h; Kd = 0.489 µM
SMILES = O=S(=O)(O)C[C@H](O)CO; target = Uncharacterized protein (Pelagibacter ubique, UniProt Q4FMA9); test = binding, isothermal titration calorimetry; test system = Candidatus Pelagibacter ubique; setting = with: CaCl2 10 mM; Kd = 4.94 ± 1.36 µM
SMILES = Cc1c(NC(=O)C2CCCN2S(=O)(=O)c2ccccc2)c(=O)n(-c2ccccc2)n1C (stereo not drawn); target = CDK2 with cyclin A; Kd = > 100 µM
SMILES = CCN(CC)Cc1ccc2cc(COC(=O)Nc3ccc(C(=O)NO)cc3)ccc2c1; target = MBLAC2; test = inhibitor, competition pulldown; test system = SW620 and MV4-11 lysate; setting = 1 h; Kd = 1.81 µM
SMILES = N#Cc1cccc2c1CC[C@H]2NC(=O)c1ccc(-c2ccco2)[nH]1; target = WD repeat-containing protein 91, residues 392–747 (Homo sapiens, UniProt A4D1P6); test = SPR; Kd = 13 µM and 5.2 µM
SMILES = CCOc1ccc2nc(SCC(=O)Nc3c(C)n(C)n(-c4ccccc4)c3=O)sc2c1; target = Cyclin-dependent kinase 2 (CDK2, Homo sapiens, UniProt P24941); test = binding; Kd = > 100 µM
SMILES = Nc1cc(F)ccc1NC(=O)c1ccc(CNC(=O)/C=C/c2cccnc2)cc1; target = MBLAC2; test = inhibitor, competition pulldown; test system = SW620 and MV4-11 lysate; setting = 1 h; Kd = > 30.2 µM
SMILES = O=S(=O)(NCc1ccccn1)c1ccc(Cl)c(Cl)c1Cl; target = CDK2 with cyclin A; Kd = > 100 µM
SMILES = CC(C)(COP(=O)(O)OP(=O)(O)OC[C@H]1O[C@@H](n2cnc3c(N)ncnc32)[C@H](O)[C@@H]1OP(=O)(O)O)[C@@H](O)C(=O)NCCC(=O)NCCS; target = N-alpha-acetyltransferase 50 (Homo sapiens, UniProt Q9GZZ1); test = competition pulldown MS; test system = SW-620 cell lysate; Kd = 4.24 µM

Excerpt of the above:
SMILES = Nc1cc(F)ccc1NC(=O)c1ccc(CNC(=O)/C=C/c2cccnc2)cc1; target = MBLAC2; test = inhibitor, competition pulldown; test system = SW620 and MV4-11 lysate; setting = 1 h; Kd = > 30.2 µM
